Published values gathered from unrelated publications.
Parts stem from different laboratories: compare values within a part only. Values joined by “and” are separate records of one study, mostly repeats; a detail may differ.
Sequence of UniProt Q16816 (whole entry, looked up): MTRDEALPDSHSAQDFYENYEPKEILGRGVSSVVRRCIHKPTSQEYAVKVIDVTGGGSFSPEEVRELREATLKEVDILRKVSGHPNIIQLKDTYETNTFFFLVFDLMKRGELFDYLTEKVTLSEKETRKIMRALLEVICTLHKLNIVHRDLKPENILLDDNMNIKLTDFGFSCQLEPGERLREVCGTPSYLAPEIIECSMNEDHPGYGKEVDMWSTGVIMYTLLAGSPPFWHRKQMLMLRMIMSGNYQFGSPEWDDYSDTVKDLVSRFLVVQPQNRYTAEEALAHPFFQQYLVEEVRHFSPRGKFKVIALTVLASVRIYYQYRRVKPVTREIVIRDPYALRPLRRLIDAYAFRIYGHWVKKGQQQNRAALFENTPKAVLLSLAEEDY
Sequence of UniProt P54764 (whole entry, looked up): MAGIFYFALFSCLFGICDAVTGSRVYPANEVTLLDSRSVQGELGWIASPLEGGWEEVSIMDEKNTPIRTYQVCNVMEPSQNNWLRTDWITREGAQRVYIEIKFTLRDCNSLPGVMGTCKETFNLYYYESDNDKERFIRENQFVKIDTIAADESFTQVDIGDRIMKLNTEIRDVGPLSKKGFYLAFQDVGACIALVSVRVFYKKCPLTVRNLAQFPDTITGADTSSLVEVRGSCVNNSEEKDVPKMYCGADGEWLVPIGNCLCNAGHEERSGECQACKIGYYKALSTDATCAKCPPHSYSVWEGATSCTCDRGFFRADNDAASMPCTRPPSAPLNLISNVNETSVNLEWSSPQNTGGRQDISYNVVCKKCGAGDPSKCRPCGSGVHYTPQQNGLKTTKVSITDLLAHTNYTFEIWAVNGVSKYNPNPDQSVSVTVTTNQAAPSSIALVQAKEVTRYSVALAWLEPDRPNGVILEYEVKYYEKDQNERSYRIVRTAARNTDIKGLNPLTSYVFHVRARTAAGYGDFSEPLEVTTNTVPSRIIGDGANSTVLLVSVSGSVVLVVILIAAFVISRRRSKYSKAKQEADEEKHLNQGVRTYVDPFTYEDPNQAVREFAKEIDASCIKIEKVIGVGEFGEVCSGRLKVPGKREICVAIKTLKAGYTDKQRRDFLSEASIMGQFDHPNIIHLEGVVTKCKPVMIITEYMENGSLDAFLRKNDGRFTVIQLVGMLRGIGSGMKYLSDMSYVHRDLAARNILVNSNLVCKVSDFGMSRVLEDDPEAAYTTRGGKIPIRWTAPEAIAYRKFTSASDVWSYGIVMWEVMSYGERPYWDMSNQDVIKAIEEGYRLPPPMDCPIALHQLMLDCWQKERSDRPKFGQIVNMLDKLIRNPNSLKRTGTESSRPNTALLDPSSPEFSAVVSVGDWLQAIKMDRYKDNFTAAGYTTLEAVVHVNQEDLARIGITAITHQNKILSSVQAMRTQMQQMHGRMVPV
Sequence of UniProt P30530 (whole entry, looked up): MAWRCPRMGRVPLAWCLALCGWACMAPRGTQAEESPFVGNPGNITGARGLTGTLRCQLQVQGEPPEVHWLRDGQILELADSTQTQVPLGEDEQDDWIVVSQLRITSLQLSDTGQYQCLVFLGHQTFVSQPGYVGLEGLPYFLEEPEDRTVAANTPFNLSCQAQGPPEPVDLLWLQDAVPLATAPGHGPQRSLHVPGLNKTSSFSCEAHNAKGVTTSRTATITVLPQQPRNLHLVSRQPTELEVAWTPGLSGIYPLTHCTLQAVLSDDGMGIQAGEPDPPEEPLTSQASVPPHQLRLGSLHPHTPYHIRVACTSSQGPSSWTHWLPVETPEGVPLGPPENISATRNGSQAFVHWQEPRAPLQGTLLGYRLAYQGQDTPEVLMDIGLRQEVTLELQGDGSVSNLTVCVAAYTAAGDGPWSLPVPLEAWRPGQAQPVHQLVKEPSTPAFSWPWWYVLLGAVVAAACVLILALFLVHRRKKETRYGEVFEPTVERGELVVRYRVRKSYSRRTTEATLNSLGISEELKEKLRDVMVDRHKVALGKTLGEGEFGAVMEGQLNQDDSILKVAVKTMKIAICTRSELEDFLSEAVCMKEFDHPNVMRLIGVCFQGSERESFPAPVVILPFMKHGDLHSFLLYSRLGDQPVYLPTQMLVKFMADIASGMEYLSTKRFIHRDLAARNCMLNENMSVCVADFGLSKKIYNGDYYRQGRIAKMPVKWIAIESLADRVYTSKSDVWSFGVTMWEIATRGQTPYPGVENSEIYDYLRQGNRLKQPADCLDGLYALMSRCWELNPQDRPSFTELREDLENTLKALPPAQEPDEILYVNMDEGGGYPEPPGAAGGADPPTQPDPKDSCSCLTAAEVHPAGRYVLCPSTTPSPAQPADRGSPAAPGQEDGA
Sequence of UniProt Q16644 (whole entry, looked up): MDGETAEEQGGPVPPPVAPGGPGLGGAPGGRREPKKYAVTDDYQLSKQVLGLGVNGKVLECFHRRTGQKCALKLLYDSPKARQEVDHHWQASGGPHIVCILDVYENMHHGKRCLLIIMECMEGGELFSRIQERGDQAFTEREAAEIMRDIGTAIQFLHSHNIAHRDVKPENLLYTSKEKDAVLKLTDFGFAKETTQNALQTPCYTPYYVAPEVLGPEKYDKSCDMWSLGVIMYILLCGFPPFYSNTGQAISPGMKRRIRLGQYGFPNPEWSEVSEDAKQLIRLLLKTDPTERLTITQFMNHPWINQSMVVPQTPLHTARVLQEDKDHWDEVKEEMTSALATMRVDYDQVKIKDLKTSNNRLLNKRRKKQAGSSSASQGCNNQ
Sequence of UniProt Q9H3Y6 (whole entry, looked up): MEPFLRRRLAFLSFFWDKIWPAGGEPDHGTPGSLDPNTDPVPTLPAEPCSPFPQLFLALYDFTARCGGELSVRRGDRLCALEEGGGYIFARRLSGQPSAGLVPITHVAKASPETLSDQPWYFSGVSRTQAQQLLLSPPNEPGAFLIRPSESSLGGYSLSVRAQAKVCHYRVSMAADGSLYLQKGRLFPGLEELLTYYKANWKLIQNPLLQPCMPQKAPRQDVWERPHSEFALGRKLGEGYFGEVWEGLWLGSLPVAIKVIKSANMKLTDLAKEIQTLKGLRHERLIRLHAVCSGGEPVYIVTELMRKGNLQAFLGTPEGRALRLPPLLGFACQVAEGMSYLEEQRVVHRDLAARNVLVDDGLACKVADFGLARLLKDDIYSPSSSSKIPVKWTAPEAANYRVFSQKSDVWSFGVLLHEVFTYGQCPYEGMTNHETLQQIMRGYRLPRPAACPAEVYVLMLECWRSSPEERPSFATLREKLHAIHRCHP
Sequence of UniProt Q9UEE5 (whole entry, looked up): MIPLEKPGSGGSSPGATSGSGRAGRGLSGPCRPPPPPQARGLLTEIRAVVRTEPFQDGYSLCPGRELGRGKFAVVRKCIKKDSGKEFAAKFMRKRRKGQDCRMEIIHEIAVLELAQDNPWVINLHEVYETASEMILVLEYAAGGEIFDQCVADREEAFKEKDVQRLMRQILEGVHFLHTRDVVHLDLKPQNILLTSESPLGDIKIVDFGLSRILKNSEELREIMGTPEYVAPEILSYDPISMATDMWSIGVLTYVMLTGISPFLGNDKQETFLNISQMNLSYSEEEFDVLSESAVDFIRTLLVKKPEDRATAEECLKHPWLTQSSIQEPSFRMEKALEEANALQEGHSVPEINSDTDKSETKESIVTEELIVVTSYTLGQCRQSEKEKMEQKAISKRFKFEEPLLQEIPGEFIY
Sequence of UniProt Q9UK32 (whole entry, looked up): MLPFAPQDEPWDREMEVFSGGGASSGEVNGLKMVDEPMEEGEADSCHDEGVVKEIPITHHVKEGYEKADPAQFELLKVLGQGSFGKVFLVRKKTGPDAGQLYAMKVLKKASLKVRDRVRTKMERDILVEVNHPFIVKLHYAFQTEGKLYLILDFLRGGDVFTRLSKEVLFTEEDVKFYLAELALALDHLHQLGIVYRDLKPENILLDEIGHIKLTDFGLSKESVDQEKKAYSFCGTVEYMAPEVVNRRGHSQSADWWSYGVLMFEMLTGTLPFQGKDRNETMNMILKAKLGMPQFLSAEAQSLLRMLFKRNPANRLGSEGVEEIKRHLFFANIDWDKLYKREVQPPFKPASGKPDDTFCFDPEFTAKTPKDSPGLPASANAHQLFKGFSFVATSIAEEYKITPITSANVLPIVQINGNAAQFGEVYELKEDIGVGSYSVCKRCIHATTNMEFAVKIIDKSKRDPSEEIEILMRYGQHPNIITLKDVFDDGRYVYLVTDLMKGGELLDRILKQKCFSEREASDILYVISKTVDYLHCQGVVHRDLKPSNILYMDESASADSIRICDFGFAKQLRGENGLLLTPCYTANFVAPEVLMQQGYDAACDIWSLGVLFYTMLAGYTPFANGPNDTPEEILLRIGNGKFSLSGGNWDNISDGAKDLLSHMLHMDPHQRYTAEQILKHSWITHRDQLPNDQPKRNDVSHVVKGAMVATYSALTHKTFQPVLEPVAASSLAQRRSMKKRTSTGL
Sequence of UniProt O75716 (whole entry, looked up): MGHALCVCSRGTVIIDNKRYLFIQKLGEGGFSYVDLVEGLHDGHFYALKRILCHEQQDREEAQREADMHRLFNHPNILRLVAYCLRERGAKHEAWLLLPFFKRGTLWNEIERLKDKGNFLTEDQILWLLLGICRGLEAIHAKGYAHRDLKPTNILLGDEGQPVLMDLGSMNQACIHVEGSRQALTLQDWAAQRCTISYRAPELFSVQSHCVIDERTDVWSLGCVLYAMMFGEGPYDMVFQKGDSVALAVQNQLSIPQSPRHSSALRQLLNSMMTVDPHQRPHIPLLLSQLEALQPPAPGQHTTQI

Sample 1
SMILES: CC(C)n1cnc(-c2ccc(F)cc2)c1-c1ncc(C(=O)Nc2ccc(N3CCN(C)CC3)cc2)[nH]1
For item: periorbital oedema, grade 3; idiopathic pulmonary fibrosis patients; oral, 30 mg once daily: “patients with adverse event” read 0%.
It gave 0% for “patients with adverse event” (Phase 2a trial, item: eosinophilia myalgia syndrome; human, idiopathic pulmonary fibrosis; 60 mg once daily, grade 5).
For Phase 2a trial, item: hypercholesterolaemia; human, idiopathic pulmonary fibrosis; 60 mg once daily, grade 4: “patients with adverse event” read 0%.
It gave 0% for “patients with adverse event” (Phase 2a trial, item: hepatobiliary disorders; human, idiopathic pulmonary fibrosis; all compound arms total, grade 4).
It gave 0% for “patients with adverse event” (Phase 2a trial, item: blood glucose increased; human, idiopathic pulmonary fibrosis; 30 mg once daily, grade 4).
It gave 0% for “patients with adverse event” (Phase 2a trial, item: hyperlipidaemia; human, idiopathic pulmonary fibrosis; all compound arms total, grade 2).
item: periorbital oedema, grade 3; idiopathic pulmonary fibrosis patients; dose not given, all compound arms pooled — “patients with adverse event”: 0%.
The “patients with adverse event” was 0% (Phase 2a trial, item: hyperuricaemia; human, idiopathic pulmonary fibrosis; 30 mg once daily, grade 2).
The “patients with adverse event” was 0% (Phase 2a trial, item: blood pressure increased; human, idiopathic pulmonary fibrosis; all compound arms total, grade 4).
The “patients with adverse event” was 0% (Phase 2a trial, item: eosinophilia myalgia syndrome; human, idiopathic pulmonary fibrosis; 30 mg once daily, grade 3).
Phase 2a trial, item: blood fibrinogen increased; human, idiopathic pulmonary fibrosis; 60 mg once daily, grade 3 — “patients with adverse event”: 0%.
The “patients with adverse event” was 0% (Phase 2a trial, item: blood creatinine increased; human, idiopathic pulmonary fibrosis; 30 mg once daily, grade 2).
item: periorbital oedema, grade 4; idiopathic pulmonary fibrosis patients; oral, 30 mg once daily — “patients with adverse event”: 0%.
For Phase 2a trial, item: hyperlipidaemia; human, idiopathic pulmonary fibrosis; 60 mg once daily, grade 4: “patients with adverse event” read 0%.

Sample 2
Target: Histamine H4 receptor (HRH4, Homo sapiens, UniProt Q9H3N8)
Sequence of UniProt Q9H3N8 (whole entry, looked up): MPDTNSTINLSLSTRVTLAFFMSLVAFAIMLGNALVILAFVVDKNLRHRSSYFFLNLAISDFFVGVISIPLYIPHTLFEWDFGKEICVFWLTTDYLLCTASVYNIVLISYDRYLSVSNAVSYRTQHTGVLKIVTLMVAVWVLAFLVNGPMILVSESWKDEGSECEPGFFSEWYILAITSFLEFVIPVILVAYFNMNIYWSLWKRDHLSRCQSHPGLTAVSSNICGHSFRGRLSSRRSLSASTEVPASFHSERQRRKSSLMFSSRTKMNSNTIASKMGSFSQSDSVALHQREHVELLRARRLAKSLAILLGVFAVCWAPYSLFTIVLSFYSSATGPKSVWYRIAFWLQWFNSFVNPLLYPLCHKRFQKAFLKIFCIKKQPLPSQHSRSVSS
Observed: ligand displacement
Tested at: 10 µM
`CC[C@H](CC(=O)O)n1c(=O)c2ncccc2n(Cc2cn(C)c3cc(C)cc(C)c23)c1=O` has an inhibition of -5.56%.
`COc1cc(N[C@@H]2CCCC[C@]2(O)C(F)(F)F)ccc1F` has an inhibition of -17.9%.
`C[C@@H](c1cccc(C#N)c1)n1cc(Cl)cc(C(N)=O)c1=N` has an inhibition of 0.47%.
With `O=C(NCCCC1CCCCC1)c1ccc(CNC(=O)c2cnn(-c3ccccc3)c2C(F)(F)F)cc1` the inhibition was -25.6%.
`O=C(N[C@H]1CCCCC/C=C\C2C[C@@]2(C(=O)O)NC(=O)[C@@H]2C[C@@H](Oc3ccncc3)CN2C1=O)OC1CCCC1` (stereo partly drawn) gave an inhibition of -8.87%.
With `COc1cc(C(=O)O)ncc1C#Cc1ccccc1NS(=O)(=O)c1cccc2c(N(C)C)ccnc12` the inhibition was -17.4%.
With `C[C@@H]1CN(c2cc(-c3n[nH]c4ccc(OC5(C)CC5)cc34)ncn2)C[C@H](C)O1` the inhibition was -19.8%.
`C[C@H](c1ccnc(Nc2nc3ccc(-c4cc(N(C)C)ncn4)cc3[nH]2)c1)N1CCN(C(=O)CC(F)(F)F)CC1` has an inhibition of -0.75%.
For `CO[C@H]1CC[C@H](CNc2ccc(S(=O)(=O)NC(=O)c3ccc(N4CCN(CC5=C(c6ccc(Cl)cc6)CC(C)(C)CC5)CC4)cc3Oc3cnc4[nH]ccc4c3)cc2[N+](=O)[O-])CC1`, the inhibition was 4.94%.
`Nc1cnc(N2CCc3cc(S(=O)(=O)Nc4c(F)cc(Cl)cc4F)cc(N4CCCC4=O)c32)nc1` gave an inhibition of -0.37%.
`O=C(NS(=O)(=O)c1ccc(NCC2CCOCC2)c([N+](=O)[O-])c1)c1ccc(N2CCN(Cc3ccc(C(F)(F)F)cc3-c3ccc(Cl)cc3)CC2)cc1Oc1cnc2[nH]ccc2c1` gave an inhibition of -2.4%.
The inhibition of `c1ccc(C2CCN(c3cnc4c(N5CCOCC5)nccn34)CC2)cc1` is reported as -19%.
`O=S(=O)(NC1CCC(c2cc(F)ccc2F)(S(=O)(=O)c2ccc(Cl)cc2)CC1)C(F)(F)F` (stereo not drawn) has an inhibition of -14.7%.
For `O=C(Nc1ccc(Oc2ccc(F)cc2)cc1)N1CCc2ncccc2[C@H]1c1ccc(F)cc1`, the inhibition was 7.56%.
For `CN1CCN(c2cnc3c(C4CCN(C(=O)c5ccc(OC(F)(F)F)cc5N)CC4)ncnc3c2)CC1`, the inhibition was -1.34%.

Sample 3
SMILES: c1ccc(Oc2ccc(Nc3c4c(nc5ccccc35)CCC4)cc2)cc1
Organism: Leishmania donovani
Strain: DD8
parasite killing; promastigotes; 33.33 µM, 96 h — inhibition: 100%.
It gave 34% and 30% for inhibition (parasite killing; promastigotes; 0.33 µM, 96 h).
parasite killing; intracellular amastigotes; 0.04 µM, 72 h — inhibition: 4% and 2%.
It gave 98% and 97% and 95% for inhibition (parasite killing; intracellular amastigotes; 4 µM, 96 h).
The inhibition was 100% (parasite killing; promastigotes; 16.66 µM, 48 h).
It gave 94% and 99% for inhibition (parasite killing; promastigotes; 3.33 µM, 96 h).
For parasite killing; intracellular amastigotes; 0.8 µM, 72 h: inhibition read 65% and 61% and 67%.
It gave 100% for inhibition (parasite viability, resazurin; promastigotes; 33.33 µM).
It gave 51% and 52% and 59% and 60% for inhibition (parasite viability, resazurin; promastigotes; 0.66 µM).

Sample 4
SMILES: Cc1cc(Nc2cc(N3CCN(C)CC3)nc(Sc3ccc(NC(=O)C4CC4)cc3)n2)[nH]n1
Observed: enzyme activity
Action: inhibitor
Tested at: 0.5 µM
Relative to: control
It gave 92.8% for remaining activity (MAP4K4 (Homo sapiens, UniProt O95819)).
It gave 95.9% for remaining activity (SRMS (Homo sapiens, UniProt Q9H3Y6)).
The remaining activity was 85.7% (RPS6KA5 (Homo sapiens, UniProt O75582)).
It gave 83.8% for remaining activity (TSSK2 (Homo sapiens, UniProt Q96PF2)).
It gave 97.7% for remaining activity (MAPKAPK3 (Homo sapiens, UniProt Q16644)).
RPS6KA6 (Homo sapiens, UniProt Q9UK32) — remaining activity: 90.7%.
For Cyclin-dependent kinase 1, with cyclin B (CDK1, Homo sapiens, UniProt P06493): remaining activity read 102%.
The remaining activity was 104% (STK17A (Homo sapiens, UniProt Q9UEE5)).
For DYRK3 (Homo sapiens, UniProt O43781): remaining activity read 105%.
It gave 52.8% for remaining activity (STK16 (Homo sapiens, UniProt O75716)).
It gave 112% for remaining activity (PRKACG (Homo sapiens, UniProt P22612)).
For EPHA4 (Homo sapiens, UniProt P54764): remaining activity read 72.1%.
For CAMK2B (Homo sapiens, UniProt Q13554): remaining activity read 118%.
For PHKG1 (Homo sapiens, UniProt Q16816): remaining activity read 69.9%.
It gave 99.2% for remaining activity (Cyclin-dependent kinase 4, with cyclin D3 (CDK4, Homo sapiens, UniProt P11802)).
For EPHB4 (Homo sapiens, UniProt P54760): remaining activity read 46.1%.
The remaining activity was 95.3% (HIPK4 (Homo sapiens, UniProt Q8NE63)).
For BLK (Homo sapiens, UniProt P51451): remaining activity read 81.4%.
For PDPK1 (Homo sapiens, UniProt O15530): remaining activity read 82.7%.
For Cyclin-dependent kinase 6, with cyclin D3 (CDK6, Homo sapiens, UniProt Q00534): remaining activity read 121%.
For WNK3 (Homo sapiens, UniProt Q9BYP7): remaining activity read 93.3%.
AXL (Homo sapiens, UniProt P30530) — remaining activity: 44.3%.

Repeated from above (sample 4):
For CAMK2B (Homo sapiens, UniProt Q13554): remaining activity read 118%.
For PHKG1 (Homo sapiens, UniProt Q16816): remaining activity read 69.9%.
It gave 99.2% for remaining activity (Cyclin-dependent kinase 4, with cyclin D3 (CDK4, Homo sapiens, UniProt P11802)).
For EPHB4 (Homo sapiens, UniProt P54760): remaining activity read 46.1%.
The remaining activity was 95.3% (HIPK4 (Homo sapiens, UniProt Q8NE63)).
For BLK (Homo sapiens, UniProt P51451): remaining activity read 81.4%.
For PDPK1 (Homo sapiens, UniProt O15530): remaining activity read 82.7%.
For Cyclin-dependent kinase 6, with cyclin D3 (CDK6, Homo sapiens, UniProt Q00534): remaining activity read 121%.
